# Published values collected from several papers.
# Each line is one published result; not all experiments were run side by side. Values joined by “and” are separate records of one study, mostly repeats; a detail may differ. ± gives the spread as reported.
# VSIR IgV domain: V-type immunoglobulin domain-containing suppressor of T-cell activation, IgV domain (VSIR, Homo sapiens, UniProt Q9H7M9)
# Sequence of UniProt Q9H7M9 (whole entry, looked up): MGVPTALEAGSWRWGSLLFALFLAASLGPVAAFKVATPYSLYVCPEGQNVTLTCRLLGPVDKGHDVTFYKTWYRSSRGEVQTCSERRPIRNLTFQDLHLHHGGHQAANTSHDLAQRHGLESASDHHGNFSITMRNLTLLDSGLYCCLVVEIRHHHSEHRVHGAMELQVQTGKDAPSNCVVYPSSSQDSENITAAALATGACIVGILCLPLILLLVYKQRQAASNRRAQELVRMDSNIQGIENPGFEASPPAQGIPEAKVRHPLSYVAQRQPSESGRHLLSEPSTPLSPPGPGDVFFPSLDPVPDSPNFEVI
# YWHAZ: 14-3-3 protein zeta/delta (YWHAZ, Homo sapiens, UniProt P63104)
# Sequence of UniProt Q9H2X3 (whole entry, looked up): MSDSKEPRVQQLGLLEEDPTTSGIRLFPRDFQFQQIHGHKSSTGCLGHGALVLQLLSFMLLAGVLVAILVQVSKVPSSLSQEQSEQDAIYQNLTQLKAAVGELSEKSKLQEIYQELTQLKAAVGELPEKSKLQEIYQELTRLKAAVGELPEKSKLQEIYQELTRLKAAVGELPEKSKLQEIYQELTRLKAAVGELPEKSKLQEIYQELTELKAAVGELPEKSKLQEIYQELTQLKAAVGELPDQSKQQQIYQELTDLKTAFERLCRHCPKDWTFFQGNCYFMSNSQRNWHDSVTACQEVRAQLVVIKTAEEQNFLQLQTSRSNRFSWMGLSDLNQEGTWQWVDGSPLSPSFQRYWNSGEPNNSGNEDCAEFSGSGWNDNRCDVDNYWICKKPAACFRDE
# Sequence of UniProt Q9H4M9 (whole entry, looked up): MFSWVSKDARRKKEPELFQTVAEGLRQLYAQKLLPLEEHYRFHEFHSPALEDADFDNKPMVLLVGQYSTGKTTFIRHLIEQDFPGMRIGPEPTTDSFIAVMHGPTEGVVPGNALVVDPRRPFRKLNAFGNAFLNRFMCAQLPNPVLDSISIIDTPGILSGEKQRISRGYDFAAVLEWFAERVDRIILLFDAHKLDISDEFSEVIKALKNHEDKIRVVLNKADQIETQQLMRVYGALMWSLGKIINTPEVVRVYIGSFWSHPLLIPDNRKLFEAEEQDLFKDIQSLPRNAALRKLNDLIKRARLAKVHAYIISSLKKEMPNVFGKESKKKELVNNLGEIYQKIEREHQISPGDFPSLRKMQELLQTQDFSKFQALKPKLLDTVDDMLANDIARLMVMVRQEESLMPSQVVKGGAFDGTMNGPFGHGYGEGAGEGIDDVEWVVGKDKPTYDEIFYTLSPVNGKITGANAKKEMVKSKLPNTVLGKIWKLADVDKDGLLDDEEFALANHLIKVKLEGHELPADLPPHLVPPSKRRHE
# Sequence of UniProt P63104 (whole entry, looked up): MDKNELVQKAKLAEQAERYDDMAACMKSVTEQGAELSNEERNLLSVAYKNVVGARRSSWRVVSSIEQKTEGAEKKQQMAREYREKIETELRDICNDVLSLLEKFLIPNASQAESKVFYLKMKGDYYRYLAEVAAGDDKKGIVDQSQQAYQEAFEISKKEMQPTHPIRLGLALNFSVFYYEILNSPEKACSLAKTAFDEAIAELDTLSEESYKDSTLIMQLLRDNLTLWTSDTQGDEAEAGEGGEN
# Sequence of UniProt P29067 (whole entry, looked up): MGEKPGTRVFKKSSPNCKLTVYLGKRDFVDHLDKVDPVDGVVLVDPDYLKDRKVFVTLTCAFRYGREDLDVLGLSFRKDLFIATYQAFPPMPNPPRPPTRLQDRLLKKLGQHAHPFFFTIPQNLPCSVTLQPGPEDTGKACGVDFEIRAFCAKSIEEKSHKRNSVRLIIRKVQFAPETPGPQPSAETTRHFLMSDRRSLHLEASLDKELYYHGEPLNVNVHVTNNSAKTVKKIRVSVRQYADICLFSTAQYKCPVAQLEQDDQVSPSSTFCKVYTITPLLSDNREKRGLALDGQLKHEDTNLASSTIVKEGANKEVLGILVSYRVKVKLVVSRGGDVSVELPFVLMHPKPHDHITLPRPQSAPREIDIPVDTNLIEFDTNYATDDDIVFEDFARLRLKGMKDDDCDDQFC
# Sequence of UniProt P42568 (whole entry, looked up): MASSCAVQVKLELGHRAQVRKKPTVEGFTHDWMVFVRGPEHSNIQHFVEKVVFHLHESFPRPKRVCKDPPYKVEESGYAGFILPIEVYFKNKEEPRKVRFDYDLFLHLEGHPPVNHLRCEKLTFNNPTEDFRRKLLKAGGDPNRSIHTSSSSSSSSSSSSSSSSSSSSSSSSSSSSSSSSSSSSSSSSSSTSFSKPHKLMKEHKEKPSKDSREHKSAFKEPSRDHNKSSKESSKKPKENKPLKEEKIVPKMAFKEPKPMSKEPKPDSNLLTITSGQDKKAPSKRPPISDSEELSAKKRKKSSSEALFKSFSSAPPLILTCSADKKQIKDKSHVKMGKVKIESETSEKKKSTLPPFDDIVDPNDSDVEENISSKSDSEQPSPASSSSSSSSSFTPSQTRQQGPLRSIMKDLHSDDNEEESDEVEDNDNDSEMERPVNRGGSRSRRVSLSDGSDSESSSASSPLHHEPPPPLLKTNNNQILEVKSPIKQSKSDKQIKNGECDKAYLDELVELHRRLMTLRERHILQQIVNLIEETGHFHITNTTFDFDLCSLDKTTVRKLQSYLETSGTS
# Sequence of UniProt P83916 (whole entry, looked up): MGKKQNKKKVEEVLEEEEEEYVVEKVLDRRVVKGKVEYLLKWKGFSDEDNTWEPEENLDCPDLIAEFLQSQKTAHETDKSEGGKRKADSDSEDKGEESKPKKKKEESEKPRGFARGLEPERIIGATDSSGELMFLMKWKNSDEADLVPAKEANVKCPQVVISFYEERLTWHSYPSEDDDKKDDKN
# Sequence of UniProt O75581 (whole entry, looked up): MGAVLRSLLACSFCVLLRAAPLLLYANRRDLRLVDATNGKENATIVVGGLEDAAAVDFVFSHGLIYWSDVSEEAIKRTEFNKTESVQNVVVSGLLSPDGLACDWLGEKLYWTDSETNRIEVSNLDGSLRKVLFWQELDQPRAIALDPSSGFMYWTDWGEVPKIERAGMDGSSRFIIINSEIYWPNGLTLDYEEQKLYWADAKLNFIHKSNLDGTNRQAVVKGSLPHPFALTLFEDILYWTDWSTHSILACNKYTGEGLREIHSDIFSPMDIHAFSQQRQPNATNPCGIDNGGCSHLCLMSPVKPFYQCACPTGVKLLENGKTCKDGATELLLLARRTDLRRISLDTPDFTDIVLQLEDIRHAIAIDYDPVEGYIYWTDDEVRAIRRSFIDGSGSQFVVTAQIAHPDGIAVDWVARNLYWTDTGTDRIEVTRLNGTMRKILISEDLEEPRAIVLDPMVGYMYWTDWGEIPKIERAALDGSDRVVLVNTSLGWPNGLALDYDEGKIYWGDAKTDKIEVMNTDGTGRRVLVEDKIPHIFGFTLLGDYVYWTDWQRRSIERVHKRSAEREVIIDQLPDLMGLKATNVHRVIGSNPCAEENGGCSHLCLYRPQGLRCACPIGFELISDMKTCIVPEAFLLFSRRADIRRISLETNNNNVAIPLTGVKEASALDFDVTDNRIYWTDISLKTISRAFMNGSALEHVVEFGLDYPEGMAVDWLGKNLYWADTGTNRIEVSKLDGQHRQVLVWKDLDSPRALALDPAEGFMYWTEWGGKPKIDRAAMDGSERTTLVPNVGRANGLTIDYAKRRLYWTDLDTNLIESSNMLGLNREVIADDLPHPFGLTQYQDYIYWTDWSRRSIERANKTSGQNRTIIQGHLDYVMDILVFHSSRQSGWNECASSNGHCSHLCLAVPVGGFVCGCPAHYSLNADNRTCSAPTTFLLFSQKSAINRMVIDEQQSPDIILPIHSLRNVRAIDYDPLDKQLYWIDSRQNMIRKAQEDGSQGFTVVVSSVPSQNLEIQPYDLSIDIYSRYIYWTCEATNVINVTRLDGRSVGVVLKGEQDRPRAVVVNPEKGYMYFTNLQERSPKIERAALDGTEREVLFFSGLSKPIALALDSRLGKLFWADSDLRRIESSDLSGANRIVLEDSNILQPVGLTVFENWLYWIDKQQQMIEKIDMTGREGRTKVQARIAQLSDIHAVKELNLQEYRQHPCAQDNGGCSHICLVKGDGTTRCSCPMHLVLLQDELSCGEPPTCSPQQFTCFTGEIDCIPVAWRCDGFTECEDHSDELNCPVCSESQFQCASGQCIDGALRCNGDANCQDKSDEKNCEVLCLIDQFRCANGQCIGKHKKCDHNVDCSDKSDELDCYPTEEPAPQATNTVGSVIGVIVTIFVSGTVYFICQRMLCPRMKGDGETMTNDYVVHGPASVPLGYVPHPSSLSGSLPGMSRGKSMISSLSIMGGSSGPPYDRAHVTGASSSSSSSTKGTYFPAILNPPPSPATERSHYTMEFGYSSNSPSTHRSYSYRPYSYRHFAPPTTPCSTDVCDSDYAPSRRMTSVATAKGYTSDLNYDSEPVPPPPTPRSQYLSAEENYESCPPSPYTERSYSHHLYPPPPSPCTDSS
# Sequence of UniProt P27348 (whole entry, looked up): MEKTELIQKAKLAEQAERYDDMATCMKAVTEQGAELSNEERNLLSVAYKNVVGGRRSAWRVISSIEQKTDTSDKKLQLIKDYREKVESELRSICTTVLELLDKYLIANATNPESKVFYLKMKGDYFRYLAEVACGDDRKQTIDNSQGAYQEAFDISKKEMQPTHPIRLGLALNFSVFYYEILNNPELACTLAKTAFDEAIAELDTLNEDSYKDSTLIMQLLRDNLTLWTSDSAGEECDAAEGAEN
# Sequence of UniProt P46108 (whole entry, looked up): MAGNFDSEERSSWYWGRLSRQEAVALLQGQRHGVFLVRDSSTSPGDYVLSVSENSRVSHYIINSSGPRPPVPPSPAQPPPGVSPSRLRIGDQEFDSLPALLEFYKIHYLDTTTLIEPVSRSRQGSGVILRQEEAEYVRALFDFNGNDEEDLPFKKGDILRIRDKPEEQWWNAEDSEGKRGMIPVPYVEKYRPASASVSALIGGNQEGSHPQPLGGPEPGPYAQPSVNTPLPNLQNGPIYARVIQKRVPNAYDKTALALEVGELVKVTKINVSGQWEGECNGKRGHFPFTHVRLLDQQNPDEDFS
# Sequence of UniProt P97287 (152-308, looked up): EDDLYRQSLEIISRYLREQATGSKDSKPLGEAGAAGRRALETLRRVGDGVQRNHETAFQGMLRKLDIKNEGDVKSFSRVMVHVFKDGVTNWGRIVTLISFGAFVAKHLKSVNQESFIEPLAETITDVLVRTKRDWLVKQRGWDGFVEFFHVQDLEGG
Structure (SMILES),target,test,system,conditions,Kd
CC(=O)N[C@@H](Cc1ccc(O)cc1)C(=O)N[C@@H](CC(N)=O)C(=O)N1CCC[C@H]1C(=O)N[C@@H](Cc1ccccc1)C(=O)N[C@@H](CCC(=O)O)C(=O)N[C@@H](CCC(=O)O)C(=O)NCC(=O)NCC(N)=O,"EH domain-containing protein 1, EH domain (Homo sapiens, UniProt Q9H4M9)","peptide binding, ITC",,"20 °C, 0 mM NaCl",5.99 µM and 5.24 µM and 5.65 µM
CC(=O)NCCCC[C@H](NC(=O)[C@H](CCCNC(=N)N)NC(=O)[C@H](C)NC(=O)[C@@H](NC(=O)[C@H](CCC(N)=O)NC(=O)[C@H](CCCCN)NC(=O)[C@@H](NC(=O)[C@H](CCCNC(=N)N)NC(C)=O)[C@@H](C)O)[C@@H](C)O)C(=O)N[C@@H](CO)C(=O)N[C@H](C(=O)NCC(=O)NCC(=O)N[C@@H](CCCCN)C(=O)N[C@@H](C)C(=O)N1CCC[C@H]1C(N)=O)[C@@H](C)O,"Protein AF-9 (Homo sapiens, UniProt P42568)","binding, ITC",,pH 7.5,4.3 µM
O=C(N[C@@H]1c2ccccc2C[C@H]1N1CCCC1)c1ccc(-c2ccnc3[nH]ccc23)nc1,"PRKG2 (Homo sapiens, UniProt Q13237)","binding, competition with immobilised ligand",,,0.105 µM
C[C@H](N)C(=O)N[C@@H](CCCNC(=N)N)C(=O)N[C@H](C(=O)N[C@@H](CCCCN)C(=O)N[C@@H](CCC(N)=O)C(=O)N[C@H](C(=O)N[C@@H](C)C(=O)N[C@@H](CCCNC(=N)N)C(=O)N[C@@H](CCCCN)C(=O)N[C@@H](CO)C(=O)N[C@H](C(=O)NCC(=O)NCC(=O)N[C@@H](CCCCN)C(=O)N[C@@H](C)C(=O)N[C@@H](Cc1ccc(O)cc1)C(N)=O)[C@@H](C)O)[C@@H](C)O)[C@@H](C)O,"Chromobox protein homolog 1, chromodomain (Homo sapiens, UniProt P83916)",ITC,,"pH 7.4, 25 °C",> 500 µM
C[C@H]1NC(=O)[C@H](CCC(=O)N[C@@H](CCCCN)C(N)=O)NC(=O)[C@@H](C)NC(=O)[C@H](Cc2ccc(F)cc2)NC(=O)[C@H](Cc2c[nH]c3ccccc23)NC(=O)[C@H](CCCNC(=N)N)NC(=O)[C@H](Cc2ccc(O)cc2)NC(=O)[C@H](CCCNC(=N)N)NC1=O,"cysS (Escherichia coli, UniProt P21888)",binding,,,1.4 µM
CC(C)C[C@H](NC(=O)CNC(=O)[C@H](C)NC(=O)[C@H](CC(=O)O)NC(=O)[C@H](CC(=O)O)NC(=O)[C@H](C)NC(=O)[C@H](C)NC(=O)[C@H](CCCCN)NC(=O)CNC(=O)[C@@H]1CCCN1C(=O)[C@@H]1CCCN1C(=O)[C@@H]1CCCN1C(=O)[C@H](CCC(=O)O)NC(=O)CN)C(=O)N[C@H](C(=O)O)C(C)C,"F-box only protein 22 (Homo sapiens, UniProt Q8NEZ5)","binding, SPR",,,33 µM
CC(C)C[C@H](NC(=O)[C@H](CCCCN)NC(=O)[C@H](Cc1c[nH]c2ccccc12)NC(=O)[C@H](Cc1ccccc1)NC(=O)[C@H](CO)NC(=O)[C@H](Cc1c[nH]c2ccccc12)NC(=O)CNC(=O)[C@@H]1CCCN1C(=O)[C@@H](N)CCCNC(=N)N)C(=O)N[C@@H](Cc1c[nH]cn1)C(=O)N[C@@H](C)C(=O)N1CCC[C@H]1C(=O)O,VSIR IgV domain,"binding, microscale thermophoresis",,,0.16 µM
CC[C@H](C)[C@H](NC(=O)[C@H](CCC(=O)O)NC(=O)[C@H](CCCNC(=N)N)NC(=O)[C@H](C)NC(=O)[C@H](Cc1c[nH]c2ccccc12)NC(=O)[C@H](CCC(=O)O)NC(=O)[C@H](CCC(=O)O)NC(=O)[C@H](CCC(=O)O)NC(C)=O)C(=O)NCC(=O)N[C@@H](C)C(=O)N[C@@H](CCC(N)=O)C(=O)N[C@@H](CC(C)C)C(=O)N[C@@H](CCCNC(=N)N)C(=O)N[C@@H](CCCNC(=N)N)C(=O)N[C@@H](CC1CCCCC1)C(=O)N[C@@H](C)C(=O)N[C@@H](CC(=O)O)C(=O)N[C@@H](CC(=O)O)C(=O)N[C@@H](CC(C)C)C(=O)N[C@@H](CC(N)=O)C(=O)N[C@@H](C)C(=O)N[C@@H](CCC(N)=O)C(=O)N[C@@H](Cc1ccc(O)cc1)C(=O)N[C@@H](CCC(=O)O)C(=O)N[C@@H](CCCNC(=N)N)C(=O)N[C@@H](CCCNC(=N)N)C(=O)N[C@@H](CCCNC(=N)N)C(N)=O,"Induced myeloid leukemia cell differentiation protein Mcl-1 homolog, residues 152-308 (Mus musculus, UniProt P97287)","binding, SPR",,0.2% DMSO,0.00023 µM
CC(C)C[C@H](NC(=O)[C@H](CS)NC(=O)[C@H](CC(=O)O)NC(=O)[C@H](C)NC(=O)[C@H](CO)NC(=O)[C@H](Cc1c[nH]cn1)NC(=O)[C@H](CC(=O)O)NC(=O)[C@H](CO)NC(=O)[C@@H](NC(=O)CNC(=O)[C@H](CC(=O)O)NC(=O)[C@H](CC(=O)O)NC(=O)[C@H](CC(C)C)NC(=O)[C@@H](N)CC(=O)O)C(C)C)C(=O)N[C@@H](CC(=O)O)C(=O)N[C@@H](CCC(N)=O)C(=O)N[C@@H](CC(=O)O)C(=O)N[C@@H](CO)C(=O)O,"Beta-arrestin-2 (Arrb2, Rattus norvegicus, UniProt P29067)",isothermal titration calorimetry,,"pH 8.0, 298 K",0.98 ± 0.06 µM
CCCC1CC(=O)N[C@@H](CC(=O)O)C(=O)N2CC(C(C)CO)C[C@H]2C(=O)N[C@@H](CCC(=O)O)C(=O)N[C@@H]([C@@H](C)O)C(=O)NCC(=O)N[C@@H](CCC(=O)O)C(=O)N1 (stereo partly shown),"KEAP1 (Homo sapiens, UniProt Q14145)","binding, MST",,,0.0135 µM
N=C(N)NCc1cn([C@@H]2[C@@H](OCCCl)O[C@H](CO)[C@@H](O)[C@@H]2O)nn1,"C-type lectin domain family 4 member M, extracellular domain (CLEC4M, Homo sapiens, UniProt Q9H2X3)",isothermal titration calorimetry,,,13.3 µM and 13.6 µM and 11.3 µM
CC[C@H](C)[C@H](NC(=O)[C@H](CO)NC(=O)[C@H](CCCNC(=N)N)NC(=O)[C@H](CCCNC(=N)N)NC(=O)[C@H](CCCNC(=N)N)NC(=O)[C@H](CCC(N)=O)NC(=O)[C@H](CCCNC(=N)N)NC(=O)[C@H](CCCNC(=N)N)NC(=O)[C@H](CCCCN)NC(=O)[C@H](CCCCN)NC(=O)[C@H](CCCNC(=N)N)NC(=O)CNC(=O)[C@@H](N)Cc1ccc(O)cc1)C(=O)N[C@@H](C)C(=O)N[C@@H](CC(N)=O)C(=O)N[C@@H](CC(C)C)C(=O)N[C@@H](CC(N)=O)C(=O)N[C@@H](CCCNC(=N)N)C(=O)N[C@@H](CO)C(=O)N[C@H](C(=O)N[C@@H](CO)C(=O)N[C@H](C(=O)N1CCC[C@H]1C(=O)N[C@@H](CCC(=O)O)C(=O)N[C@@H](CC(N)=O)C(=O)O)C(C)C)[C@@H](C)O,"OGT (Homo sapiens, UniProt O15294)",microscale thermophoresis,transfected 293T cell lysate,"10 min, room temperature",12.6 ± 4.25 µM
CC[C@H](C)[C@H](NC(=O)[C@H](CC(=O)O)NC(=O)[C@H](CCCNC(=N)N)NC(=O)[C@H](C)NC(=O)c1ccc2c(c1)C(=O)OC21c2ccc(N(C)C)cc2Oc2cc(N(C)C)ccc21)C(=O)N[C@@H](Cc1c[nH]cn1)C(=O)N[C@@H](Cc1c[nH]cn1)C(=O)N[C@H](C(=O)N[C@@H](CC(=O)O)C(=O)N[C@@H](Cc1ccc(O)cc1)C(=O)N[C@@H](Cc1ccc(OP(=O)(O)O)cc1)C(=O)N[C@@H](CCCCN)C(=O)N[C@@H](CCCCN)C(=O)N[C@H](C(=O)N[C@H](C(=O)N[C@@H](CC(N)=O)C(=O)NCC(=O)N[C@@H](CCCNC(=N)N)C(=O)N[C@@H](CC(=O)O)C(=O)O)[C@@H](C)O)[C@@H](C)O)[C@@H](C)CC,"Adapter molecule crk, SH2 domain (Homo sapiens, UniProt P46108)",binding,,,1.11 µM
CC(=O)N[C@@H](CCCNC(=N)N)C(=O)N[C@H](C(=O)N1CCC[C@H]1C(=O)N[C@@H](COP(=O)(O)O)C(=O)N[C@@H](CC(C)C)C(=O)N1CCC[C@H]1C(=O)N[C@@H](C(=O)N1CCC[C@H]1C(c1ccccc1)c1ccccc1)C(C)C)[C@@H](C)O,YWHAZ,"binding, ITC",,,3.36 µM
CC(C)C[C@H](NC(=O)[C@H](CCCCN)NC(=O)CNC(=O)[C@H](Cc1ccccc1)NC(=O)[C@H](CO)NC(=O)[C@H](Cc1c[nH]c2ccccc12)NC(=O)CNC(=O)[C@@H]1CCCN1C(=O)[C@@H](N)C(C)C)C(=O)N[C@@H](Cc1c[nH]cn1)C(=O)N[C@@H](C)C(=O)N1CCC[C@H]1C(=O)O,VSIR IgV domain,"binding, microscale thermophoresis",,,3.09 µM
CC(C)C[C@H](NC(=O)[C@H](CCP(=O)(O)O)NC(=O)[C@@H](NC(=O)[C@@H](NC(=O)[C@H](CCCNC(=N)N)NC(=O)[C@H](CC(C)C)NC(=O)[C@H](CO)NC(=S)Nc1ccc2c(c1)C(=O)OC21c2ccc(O)cc2Oc2cc(O)ccc21)[C@@H](C)O)C(C)C)C(=O)NCC(=O)N[C@@H](C)C(=O)NCC(=O)N[C@@H](C)C(=O)N[C@@H](Cc1c[nH]c2ccccc12)C(=O)N[C@@H](CC(C)C)C(=O)N[C@H](C(=O)N1CCC[C@H]1C(=O)N[C@@H](CCCNC(=N)N)C(=O)O)C(C)C,"14-3-3 protein theta (Homo sapiens, UniProt P27348)","binding, fluorescence anisotropy",,"pH 7.5, FITC-labelled phosphopeptide titration",37.5 µM
CC(=O)NC1C(O)OC(CO)C(OC2OC(CO)C(OC3OC(CO)C(O)C(O)C3O)C(O)C2O)C1O (stereo not shown),"sly (Streptococcus suis, UniProt Q55996, R465A)",binding,,,0.269 µM
COc1ccccc1C(c1ccccc1)C1CCCN1C(=O)CNC(=O)[C@@H]1CCCN1C(=O)[C@H](CC(C)C)NC(=O)[C@H](COP(=O)(O)O)NC(=O)[C@@H]1CCCN1C(=O)[C@@H](NC(=O)[C@H](CCCNC(=N)N)NC(C)=O)[C@@H](C)O (stereo partly shown),YWHAZ,isothermal titration calorimetry,,,13.6 ± 2.46 µM
CC(C)C[C@@H]1NC(=O)[C@@H]2CSSC[C@@H](C(=O)NCC(=O)O)NC(=O)[C@H](Cc3ccccc3)NC(=O)CNC(=O)[C@H](CC(N)=O)NC(=O)[C@@H]3CCCN3C(=O)CNC(=O)[C@@H]3CSSC[C@H](NC(=O)[C@H](CCCNC(=N)N)NC(=O)[C@H](CC(N)=O)NC(=O)[C@H](Cc4c[nH]cn4)NC(=O)[C@H](CCCCN)NC(=O)[C@H](C)NC(=O)CNC(=O)[C@H](Cc4c[nH]cn4)NC(=O)[C@H](C)NC(=O)[C@H](CO)NC(=O)[C@H](CCC(N)=O)NC(=O)[C@@H](NC(=O)CN)CSSC[C@H](NC(=O)CNC(=O)[C@H](C)NC1=O)C(=O)N[C@@H](C(C)C)C(=O)N3)C(=O)N[C@@H](CCCCN)C(=O)N[C@@H](CCC(N)=O)C(=O)N[C@@H](CC(=O)O)C(=O)N[C@@H](CO)C(=O)N[C@@H](CC(=O)O)C(=O)N2,"Low-density lipoprotein receptor-related protein 6, E1 domain (LRP6, Homo sapiens, UniProt O75581)","binding, SPR",,pH 7.5,> 1 µM

# A few entries again:
Structure (SMILES),target,test,system,conditions,Kd
CC[C@H](C)[C@H](NC(=O)[C@H](CCC(=O)O)NC(=O)[C@H](CCCNC(=N)N)NC(=O)[C@H](C)NC(=O)[C@H](Cc1c[nH]c2ccccc12)NC(=O)[C@H](CCC(=O)O)NC(=O)[C@H](CCC(=O)O)NC(=O)[C@H](CCC(=O)O)NC(C)=O)C(=O)NCC(=O)N[C@@H](C)C(=O)N[C@@H](CCC(N)=O)C(=O)N[C@@H](CC(C)C)C(=O)N[C@@H](CCCNC(=N)N)C(=O)N[C@@H](CCCNC(=N)N)C(=O)N[C@@H](CC1CCCCC1)C(=O)N[C@@H](C)C(=O)N[C@@H](CC(=O)O)C(=O)N[C@@H](CC(=O)O)C(=O)N[C@@H](CC(C)C)C(=O)N[C@@H](CC(N)=O)C(=O)N[C@@H](C)C(=O)N[C@@H](CCC(N)=O)C(=O)N[C@@H](Cc1ccc(O)cc1)C(=O)N[C@@H](CCC(=O)O)C(=O)N[C@@H](CCCNC(=N)N)C(=O)N[C@@H](CCCNC(=N)N)C(=O)N[C@@H](CCCNC(=N)N)C(N)=O,"Induced myeloid leukemia cell differentiation protein Mcl-1 homolog, residues 152-308 (Mus musculus, UniProt P97287)","binding, SPR",,0.2% DMSO,0.00023 µM
CC(C)C[C@H](NC(=O)[C@H](CS)NC(=O)[C@H](CC(=O)O)NC(=O)[C@H](C)NC(=O)[C@H](CO)NC(=O)[C@H](Cc1c[nH]cn1)NC(=O)[C@H](CC(=O)O)NC(=O)[C@H](CO)NC(=O)[C@@H](NC(=O)CNC(=O)[C@H](CC(=O)O)NC(=O)[C@H](CC(=O)O)NC(=O)[C@H](CC(C)C)NC(=O)[C@@H](N)CC(=O)O)C(C)C)C(=O)N[C@@H](CC(=O)O)C(=O)N[C@@H](CCC(N)=O)C(=O)N[C@@H](CC(=O)O)C(=O)N[C@@H](CO)C(=O)O,"Beta-arrestin-2 (Arrb2, Rattus norvegicus, UniProt P29067)",isothermal titration calorimetry,,"pH 8.0, 298 K",0.98 ± 0.06 µM
CCCC1CC(=O)N[C@@H](CC(=O)O)C(=O)N2CC(C(C)CO)C[C@H]2C(=O)N[C@@H](CCC(=O)O)C(=O)N[C@@H]([C@@H](C)O)C(=O)NCC(=O)N[C@@H](CCC(=O)O)C(=O)N1 (stereo partly shown),"KEAP1 (Homo sapiens, UniProt Q14145)","binding, MST",,,0.0135 µM
